Measured values pooled from the literature.
A part holds a random share of what one study measured.

Sample 1 — read-out: enzyme activity; action: inhibitor; concentration: 20 µM
Target: Replicase polyprotein 1ab, polymerase (rep, Severe acute respiratory syndrome coronavirus 2, UniProt P0DTD1)
CCOC(=O)OC(C)OC(=O)[C@@H]1N2C(=O)[C@@H](NC(=O)[C@H](N)c3ccccc3)[C@H]2SC1(C)C (some centres unmarked) has an inhibition of -2.47%.
COc1ccc(-c2cc(=O)c3c(O)cc(O)cc3o2)cc1O gave an inhibition of 16.8%.
With O=C(O)CCNC(=O)c1ccccc1 the inhibition was -1.98%.
Oc1cc(O)c(Cl)cn1 has an inhibition of 1.77%.
C=C[C@]1(C)C[C@@H](OC(=O)CSC(C)(C)CNC(=O)[C@H](N)C(C)C)[C@]2(C)[C@H](C)CC[C@]3(CCC(=O)[C@H]32)[C@@H](C)[C@@H]1O has an inhibition of -3.37%.
The inhibition of CC1(C)CN(C(=O)c2ccc(-c3cccc4nc(NC(=O)C5CC5)nn34)cc2)C1 is reported as -4.89%.
O=C1NCCc2[nH]c(-c3ccncc3)cc21 has an inhibition of -4.69%.
With N#Cc1c(N2C[C@@H]3NCCO[C@H]3C2)c(F)cc2c(=O)c(C(=O)O)cn(C3CC3)c12 the inhibition was -5.09%.
CCCCC1(COC(=O)CCC(=O)O)C(=O)N(c2ccccc2)N(c2ccccc2)C1=O gave an inhibition of 0.47%.
The inhibition of CC(C)[C@H](CO)Nc1nc(Nc2ccc(C(=O)O)c(Cl)c2)c2ncn(C(C)C)c2n1 is reported as -4.95%.
The inhibition of Nc1nc(NCCc2ccc(O)cc2)nc2nc(-c3ccco3)nn12 is reported as 5.07%.
CS(=O)(=O)c1ccc([C@@H](O)[C@@H](CF)NC(=O)C(Cl)Cl)cc1 has an inhibition of -1.42%.
For CNC(C)CC1CCCCC1 (centres unmarked), the inhibition was 5.19%.
For CN(c1ncccc1CNc1nc(Nc2ccc3c(c2)CC(=O)N3)ncc1C(F)(F)F)S(C)(=O)=O, the inhibition was -4.72%.
With OC[C@H]1O[C@@H](n2cnc3c(N[C@H]4CCC[C@@H]4O)ncnc32)[C@H](O)[C@@H]1O the inhibition was 0.57%.
O=S(=O)(O)c1cc(I)c(O)c2ncccc12 gave an inhibition of -0.54%.
With CN(C)C(=O)c1cc2cnc(Nc3ccc(N4CCNCC4)cn3)nc2n1C1CCCC1 the inhibition was -4.55%.
With Nc1nc(N)c2nc(-c3ccccc3)c(N)nc2n1 the inhibition was 0.13%.

Sample 2 — technique: protein-binding microarray; form: double-stranded DNA, one strand shown; sample: in vitro; concentration: not given; direction: higher = stronger binding
Target: Protein C-ets-1 (ETS1, Homo sapiens, UniProt P14921, residues 1-441, full length assumed)
Notes: k-mer, scored over probes, only values ≥0.25
Target sequence (chain): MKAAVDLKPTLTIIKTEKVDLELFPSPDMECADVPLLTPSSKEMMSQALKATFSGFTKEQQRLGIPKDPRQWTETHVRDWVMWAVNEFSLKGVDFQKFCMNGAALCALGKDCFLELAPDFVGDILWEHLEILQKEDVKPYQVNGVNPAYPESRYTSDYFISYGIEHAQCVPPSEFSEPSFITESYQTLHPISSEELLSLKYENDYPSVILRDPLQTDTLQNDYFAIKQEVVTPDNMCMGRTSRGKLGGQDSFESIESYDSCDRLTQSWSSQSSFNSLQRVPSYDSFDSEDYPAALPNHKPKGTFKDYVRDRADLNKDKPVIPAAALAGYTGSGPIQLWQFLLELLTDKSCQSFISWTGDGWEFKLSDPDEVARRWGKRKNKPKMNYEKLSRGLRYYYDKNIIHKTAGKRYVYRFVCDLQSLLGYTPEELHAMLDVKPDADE
The E-score of `GGGAAACC` is reported as 0.287.
For `GGCGGATA`, the E-score was 0.429.
`TCCTGCCA` has an E-score of 0.332.
For `ACATCCTC`, the E-score was 0.428.
`CCGGTTGA` gave an E-score of 0.287.

Sample 3 — read-out: enzyme activity; concentration: 20 µM; notes: with DTT
Target: Replicase polyprotein 1ab, main protease (rep, Severe acute respiratory syndrome coronavirus 2, UniProt P0DTD1)
CCOc1cc(C(Nc2cc(C)ccn2)c2ccc3cccnc3c2O)ccc1OC (centres unmarked) gave an inhibition of 96.1%.
Sc1nnc(-c2ccccc2Cl)o1 gave an inhibition of 82.2%.
For O=c1[nH]nc(Sc2ncc([N+](=O)[O-])s2)n1-c1ccc2c(c1)OCCO2, the inhibition was 21.2%.

Sample 4 — technique: protein-binding microarray; form: double-stranded DNA, one strand shown; sample: in vitro; concentration: 940 nM top; notes: 60-bp whole probe; added: salmon DNA 0.4 mg/ml; baseline: random background probes; direction: higher = stronger binding; shared flanks, not repeated: GCCTAGCAC … GTCTTGATTCGCTTGACGCTGCTG
Target: Interferon regulatory factor 5, full length, phosphomimetic (IRF5, Homo sapiens, UniProt Q13568-2, residues 1-514, S451D/S453D/S456D/S462D)
`GATTTTTTAGCTTGCAAAAAGTGCTAG` — result for “fitted relative affinity”: -0.514 z-score.
For `TTAGGTCTCGGACTGGGTTAGTGCTAG`, “fitted relative affinity” read 1.04 z-score.
`TCATTTATGTACTCTCTCACTGTGCTA` — result for “fitted relative affinity”: 1.2 z-score.
`TTAGATTTTGGGACTGGATTAGTGCTA` — result for “fitted relative affinity”: -0.165 z-score.
Under “fitted relative affinity”, `GTTTCATTCCTGATCTCTGGGTGCTAG` is recorded as 3.69 z-score.
`GACGGTCTCGGACTTGGGACGTGCTAG`: “fitted relative affinity” 0.744 z-score.
`TTAGAACTGAGTTGCGATTAGTGCTAG` — result for “fitted relative affinity”: 0.593 z-score.
For `GACGTTTTCAGTTTCGAGACGTGCTAG`, “fitted relative affinity” read 5.23 z-score.

Sample 5 — cell line: HEK-293T; read-out: pseudovirus infection; technique: FDA-approved drug library screen; organism: VSV pseudotyped with SARS-CoV-2 spike; concentration: 10 µM; time: 16 h; baseline: vehicle-treated
The GFP-positive cells of O=C1O[C@H](CO)[C@@H](O)[C@H](O)[C@H]1O is reported as 83.5%.
For CC1(C)NC(=O)N(c2ccc([N+](=O)[O-])c(C(F)(F)F)c2)C1=O, the GFP-positive cells was 121%.
The GFP-positive cells of C[C@@H]1O[C@@H]1P(=O)(O)O is reported as 88.7%.
The GFP-positive cells of CCCNC(C)C(=O)Nc1ccccc1C (centres unmarked) is reported as 93.1%.

Excerpt of the above (sample 3):
CCOc1cc(C(Nc2cc(C)ccn2)c2ccc3cccnc3c2O)ccc1OC (centres unmarked) gave an inhibition of 96.1%.
Sc1nnc(-c2ccccc2Cl)o1 gave an inhibition of 82.2%.
For O=c1[nH]nc(Sc2ncc([N+](=O)[O-])s2)n1-c1ccc2c(c1)OCCO2, the inhibition was 21.2%.
